Experimental data of several laboratories.
Compare with care: the assays were run in different laboratories. ± gives the spread as reported.

SMILES = CC[C@H](C)[C@H](NC(=O)[C@@H]1CC(=O)N[C@@H](CO)C(=O)N[C@@H](CC(C)C)C(=O)NCC(=O)N[C@@H](CO)C(=O)N[C@@H](CO)C(=O)N2CCC[C@H]2C(=O)N[C@@H](Cc2ccc(O)cc2)C(=O)N[C@@H](CC(N)=O)C(=O)N1)C(=O)N[C@@H](CC(C)C)C(=O)NCC(=O)N[C@@H](Cc1ccc(O)cc1)C(=O)N1CCC[C@H]1C(=O)N[C@@H](C)C(=O)N[C@@H](CC(C)C)C(=O)N[C@H](C(=O)N[C@H](C(=O)N[C@H](C(=O)N[C@@H](Cc1ccc(O)cc1)C(=O)N1CCC[C@H]1C(=O)O)[C@@H](C)CC)C(C)C)[C@@H](C)CC; organism = Saccharomyces cerevisiae; MIC = > 128 µg/mL
SMILES = [O-][N+]1=C(c2ccsc2)C2=NCCCN2c2ccccc21; organism = Cutibacterium acnes; test = microbial growth; MIC = 32 µg/mL
SMILES = CC(C)C[C@@H]1NC(=O)[C@H](C)NC(=O)[C@@H]2NC(=O)[C@H](CO)NC(=O)[C@@H](CCCCN)NC(=O)[C@H](NC(=O)[C@@H](N)Cc3ccccc3)CCCCCCCC[C@H](NC1=O)C(=O)O[C@H]2C; organism = Bacillus subtilis Staphylococcus epidermidis; system = ATCC 14990; setting = tested as TFA salt; MIC = 8 µg/mL
SMILES = CC[C@H](C)[C@@H]1NC(=O)CNC(=O)[C@H](CCCCN)NC(=O)[C@H](C)NC(=O)[C@H](CCC(=O)O)NC(=O)[C@H](Cc2ccccc2)NC(=O)[C@H](CO)NC(=O)[C@H](CC(C)C)NC(=O)[C@H](C(C)C)NC(=O)[C@H](CC(=O)O)NC(=O)[C@@H](NC(=O)[C@@H](NC(=O)[C@@H](N)C(C)C)[C@@H](C)O)CSSC[C@@H]2NC(=O)[C@H](CO)NC(=O)CNC(=O)CNC(=O)[C@H](CCCCN)NC(=O)[C@H](CCCCN)NC(=O)[C@H](CCCNC(=N)N)NC(=O)[C@H](CC(C)C)NC(=O)[C@H](C)NC(=O)[C@H]([C@@H](C)CC)NC(=O)[C@H](CSSC[C@@H](C(=O)N[C@@H](CCCNC(=N)N)C(=O)N[C@@H](CC(N)=O)C(=O)O)NC(=O)[C@H](C(C)C)NC(=O)[C@H](C)NC(=O)[C@H](C(C)C)NC(=O)CNC(=O)[C@H](CC(N)=O)NC(=O)[C@H](CCC(N)=O)NC2=O)NC(=O)[C@H](Cc2c[nH]cn2)NC(=O)[C@H](CC(C)C)NC(=O)[C@H](C)NC(=O)[C@H](C)NC(=O)[C@H](C)NC(=O)[C@H](CO)NC(=O)[C@H](Cc2c[nH]cn2)NC(=O)[C@H](CC(N)=O)NC(=O)[C@H](C(C)C)NC(=O)[C@H](C)NC1=O; organism = Salmonella typhimurium; test = broth microdilution; system = KCTC 1926; setting = 16 h, 37 °C; MIC = > 100 µM
SMILES = CC[C@H](C)[C@H](NC(=O)[C@H](CCCN)NC(=O)[C@H](CC(N)=O)NC(=O)[C@H](CC(C)C)NC(=O)[C@H](Cc1ccccc1)NC(=O)[C@H](CCCN)NC(=O)[C@H](CCCCNC(=N)N)NC(=O)[C@H](CC(C)C)NC(=O)[C@H](CC(C)C)NC(=O)[C@H](CCCN)NC(=O)[C@H](CCCCNC(=N)N)NC(=O)[C@H](CC(C)C)NC(=O)CNC(C)=O)C(=O)N[C@@H](CCCN)C(=O)N[C@@H](CCCCNC(=N)N)C(N)=O; organism = Citrobacter freundii; test = bacterial growth, broth microdilution; system = multidrug-resistant; MIC = 3.12 µM
SMILES = CC[C@H](C)[C@H](NC(=O)[C@H](C)NC(=O)[C@@H](NC(=O)[C@H](CC(=O)O)NC(=O)[C@H](CCCCN)NC(=O)[C@H](CO)NC(=O)[C@@H](NC(=O)[C@H](CC(N)=O)NC(=O)[C@H](C)NC(=O)[C@@H](NC(=O)[C@H](CCC(=O)O)NC(=O)[C@H](CCCCN)NC(=O)[C@@H](NC(=O)[C@@H](NC(=O)[C@H](Cc1c[nH]cn1)NC(=O)[C@H](CCCCN)NC(=O)[C@@H](NC(=O)[C@H](CCCCN)NC(=O)[C@H](CCCCN)NC(=O)[C@@H](NC(=O)[C@H](CC(C)C)NC(=O)[C@H](CCCCN)NC(=O)[C@H](CC(N)=O)NC(=O)[C@H](Cc1ccccc1)NC(=O)[C@H](CCCNC(=N)N)NC(=O)[C@H](CCCCN)NC(=O)[C@H](CCCNC(=N)N)NC(=O)[C@H](Cc1ccccc1)NC(=O)CN)C(C)C)C(C)C)[C@@H](C)O)[C@@H](C)CC)[C@@H](C)O)C(C)C)C(C)C)C(=O)N[C@H](C(=O)N[C@@H](C)C(=O)NCC(=O)N[C@@H](CO)C(=O)NCC(=O)N[C@H](C(=O)N[C@@H](C)C(=O)N[C@H](C(=O)NCC(=O)N[C@@H](C)C(=O)N[C@@H](C)C(=O)N[C@@H](CCSC)C(N)=O)C(C)C)C(C)C)C(C)C; organism = Gram-positive bacteria, Candida albicans; system = reference strains, CAMHB; MIC = ≥ 1020 µg/mL
SMILES = CC[C@H](C)[C@H](NC(=O)[C@@H](Cc1ccccc1)NC)C(=O)N[C@@H](CO)C(=O)N[C@H](CCC(N)=O)C(=O)N[C@@H](C(=O)N[C@H](C(=O)N[C@@H](CO)C(=O)N[C@H]1C(=O)N[C@@H](C)C(=O)N[C@@H](C2CCCCC2)C(=O)N[C@@H]([C@@H](C)CC)C(=O)O[C@H]1C)[C@@H](C)CC)[C@@H](C)CC; organism = Gram-positive bacteria; system = 0.002% polysorbate 80; setting = range over five species; MIC = 0.125 to 1 µg/mL
SMILES = CC[C@H](C)[C@H](NC(=O)[C@H](CCCCN)NC(=O)[C@H](CC(N)=O)NC(=O)[C@H](CC(C)C)NC(=O)[C@H](Cc1ccccc1)NC(=O)[C@H](CCCCN)NC(=O)[C@H](CCCCNC(=N)N)NC(=O)[C@H](CC(C)C)NC(=O)[C@H](CC(C)C)NC(=O)[C@H](CCCCN)NC(=O)[C@H](CCCCNC(=N)N)NC(=O)[C@H](CC(C)C)NC(=O)CNC(C)=O)C(=O)N[C@@H](CCCCN)C(=O)N[C@@H](CCCCNC(=N)N)C(N)=O; organism = Enterobacter aerogenes; test = broth microdilution; system = multidrug-resistant; MIC = 12.5 µM
SMILES = CC(C)c1ccc(Cn2ccc([C@H](C)[C@](O)(Cn3cnnn3)c3ccc(F)cc3F)n2)cc1; organism = Candidozyma auris; test = microbial growth; system = D12; setting = 24 h, drug-resistant strain, clinical isolate; MIC = 1 µg/mL
SMILES = CN[C@@H]1[C@H](O)[C@H](NC)[C@H]2O[C@]3(O)[C@H](O[C@@H]2[C@H]1O)O[C@H](C)C[C@@]3(O)CNCc1ccc(F)cc1; organism = Streptococcus pneumoniae; system = ATCC 700904 drug resistant; MIC = 6 µg/mL
SMILES = C[C@@H](c1ccn(Cc2ccc(OC(F)(F)F)cc2)n1)[C@](O)(Cn1cnnn1)c1ccc(F)cc1F; organism = Candidozyma auris; test = microbial growth; system = D12; setting = 24 h, drug-resistant strain, clinical isolate; MIC = 0.5 µg/mL
SMILES = CN(Cc1cc(C2CC2)on1)C(=O)c1cccc(-c2ccc3c(c2)CCO3)c1; organism = Cryptococcus neoformans; test = broth microdilution; system = H99, YNB with 2% acetate; MIC = 2 µg/mL
SMILES = CC[C@H](C)[C@H](NC(=O)[C@H](C)NC(=O)CNC(=O)[C@@H](N)CCSC)C(=O)N[C@@H](C)C(=O)N[C@@H](CCCCN)C(=O)N[C@@H](CC(C)C)C(=O)N[C@@H](CCCNC(=N)N)C(=O)N[C@@H](C)C(=O)N[C@@H](CCCCN)C(=O)N[C@@H](Cc1ccccc1)C(=O)NCC(=O)N[C@@H](Cc1c[nH]c2ccccc12)C(=O)N1CCC[C@H]1C(=O)N[C@@H](Cc1ccccc1)C(=O)N[C@H](C(=O)N[C@@H](CCCCN)C(=O)N[C@@H](CCCCN)C(=O)N[C@@H](Cc1ccccc1)C(=O)N[C@@H](Cc1ccc(O)cc1)C(=O)N[C@@H](CCCCN)C(=O)N[C@@H](CCC(N)=O)C(=O)N[C@H](C(=O)N[C@@H](CCSC)C(=O)N[C@@H](CCC(N)=O)C(=O)N[C@@H](Cc1ccccc1)C(=O)N[C@H](C(=O)NCC(=O)N[C@@H](CCC(N)=O)C(=O)NCC(=O)N[C@@H](Cc1c[nH]c2ccccc12)C(=O)N[C@H](C(=O)N[C@H](C(=O)N[C@@H](CC(=O)O)C(=O)N[C@@H](CCC(N)=O)C(=O)N[C@H](C(=O)N[C@@H](CCC(=O)O)C(=O)N[C@@H](CCCCN)C(=O)N[C@@H](Cc1c[nH]c2ccccc12)C(=O)N[C@@H](CC(C)C)C(=O)N[C@@H](CCCCN)C(=O)N[C@@H](CCCNC(=N)N)C(=O)N[C@@H](Cc1c[nH]cn1)C(=O)O)[C@@H](C)CC)[C@@H](C)CC)[C@@H](C)O)[C@@H](C)CC)[C@@H](C)CC)[C@@H](C)CC; organism = Bacillus subtilis subsp. subtilis; system = ATCC 23857; setting = 10 h; MIC = 11.5 ± 0.1 µM
SMILES = O=C(NCc1nc(-c2ccc(Br)cc2)c[nH]1)Nc1ncc(Sc2ccccn2)s1; organism = Bifidobacterium breve; test = broth microdilution; system = ATCC 11863; setting = without verapamil; MIC = > 128 µM
SMILES = [O-][N+]1=C(c2ccccc2)C2=NCCN2c2ccccc21; organism = Clostridium sporogenes; test = microbial growth; system = ATCC3584; MIC = 0.25 µg/mL
SMILES = CN[C@@H]1[C@H](O)[C@H](NC)[C@H]2O[C@]3(O)[C@H](O[C@@H]2[C@H]1O)O[C@H](C)C[C@@]3(O)CNCc1ccc(OC(F)(F)F)cc1; organism = Streptococcus pneumoniae; system = ATCC 700904 drug resistant; MIC = 13 µg/mL
SMILES = O=[N+]([O-])c1ccc(C2=[N+]([O-])c3ccccc3N3CCCN=C23)cc1; organism = Clostridium sporogenes; test = microbial growth; system = ATCC3584; MIC = ≤ 0.06 µg/mL
SMILES = CN[C@@H]1[C@H](O)[C@H](NC)[C@H]2O[C@]3(O)[C@H](O[C@@H]2[C@H]1O)O[C@H](C)C[C@@]3(O)CNCc1ccccc1; organism = Streptococcus pneumoniae; system = BAA-1407 mefE ermB resistant; MIC = 13 µg/mL
SMILES = C[N+]1=C2C(c3ccc([N+](=O)[O-])cc3)=[N+]([O-])c3ccccc3N2CCC1; organism = Clostridium sporogenes; test = microbial growth; system = ATCC3584; MIC = 0.125 µg/mL
SMILES = C[C@@H](c1ccn(Cc2ccc(I)cc2)n1)[C@](O)(Cn1cnnn1)c1ccc(F)cc1F; organism = Candidozyma auris; test = microbial growth; system = 887; setting = 24 h, drug-resistant strain, clinical isolate; MIC = 2 µg/mL
SMILES = C=C(NC(=O)C(=C)NC(=O)c1csc(C2=NC3c4csc(n4)C4NC(=O)c5csc(n5)C(C(C)(O)C(C)O)NC(=O)C5CSC(=N5)C(=CC)NC(=O)C(C(C)O)NC(=O)c5csc(n5)C3(CC2)NC(=O)C(C)NC(=O)C(=C)NC(=O)C(CCSC)NC(=O)C(C(C)CC)NC2C=Cc3c(C(C)O)cc(nc3C2O)C(=O)OC4C)n1)C(N)=O (stereo not drawn); organism = Bacillus sp.; test = broth microdilution; system = ATCC 27859; setting = 18 h, 37 °C; MIC = 0.086 µg/mL
SMILES = [O-][N+]1=C(c2ccc(Cl)cc2)C2=NCCCN2c2ccccc21; organism = Clostridium sporogenes; test = microbial growth; system = ATCC3584; MIC = 2 µg/mL
SMILES = CC(C)C[C@H](NC(=O)[C@H](CCCCN)NC(=O)[C@H](C)NC(=O)[C@H](CC(C)C)NC(=O)[C@H](CCCCN)NC(=O)[C@H](CCCCN)NC(=O)[C@H](C)NC(=O)[C@H](CC(C)C)NC(=O)[C@H](CCCCN)NC(=O)[C@H](C)NC(=O)[C@H](CC(C)C)NC(=O)[C@H](CCCCN)NC(=O)[C@H](Cc1c[nH]cn1)NC(=O)[C@H](C)NC(=O)[C@@H](N)CC(=O)O)C(=O)N[C@@H](C)C(=O)N[C@@H](CCCCN)C(N)=O; organism = Enterobacter aerogenes; system = ATCC 13048; setting = 18 to 20 h; MIC = > 32 µM
SMILES = CC[C@H](C)[C@H](NC(=O)[C@H](CO)NC(=O)[C@H](CO)NC(=O)[C@H](Cc1ccccc1)NC(=O)CN)C(=O)N[C@@H](Cc1ccccc1)C(=O)N[C@@H](CCCNC(=N)N)C(=O)NCC(=O)N[C@H](C(=O)N[C@@H](C)C(=O)N[C@@H](CCCCN)C(N)=O)C(C)C; organism = Escherichia coli; system = ATCC 8739; setting = together with: 4 µM FeCl3; MIC = > 128 µM

A few entries again:
SMILES = CC[C@H](C)[C@H](NC(=O)[C@H](CCCN)NC(=O)[C@H](CC(N)=O)NC(=O)[C@H](CC(C)C)NC(=O)[C@H](Cc1ccccc1)NC(=O)[C@H](CCCN)NC(=O)[C@H](CCCCNC(=N)N)NC(=O)[C@H](CC(C)C)NC(=O)[C@H](CC(C)C)NC(=O)[C@H](CCCN)NC(=O)[C@H](CCCCNC(=N)N)NC(=O)[C@H](CC(C)C)NC(=O)CNC(C)=O)C(=O)N[C@@H](CCCN)C(=O)N[C@@H](CCCCNC(=N)N)C(N)=O; organism = Citrobacter freundii; test = bacterial growth, broth microdilution; system = multidrug-resistant; MIC = 3.12 µM
SMILES = CN[C@@H]1[C@H](O)[C@H](NC)[C@H]2O[C@]3(O)[C@H](O[C@@H]2[C@H]1O)O[C@H](C)C[C@@]3(O)CNCc1ccc(F)cc1; organism = Streptococcus pneumoniae; system = ATCC 700904 drug resistant; MIC = 6 µg/mL
SMILES = CN(Cc1cc(C2CC2)on1)C(=O)c1cccc(-c2ccc3c(c2)CCO3)c1; organism = Cryptococcus neoformans; test = broth microdilution; system = H99, YNB with 2% acetate; MIC = 2 µg/mL
